Experimental data from different studies.
Numbered parts are unrelated; each lists some results of a single study. Changes are numbered by the printed parent chain.

Study 1
Target: Histone acetyltransferase KAT6A, winged helix 1, GST fusion (KAT6A, Homo sapiens, UniProt Q92794, residues 1-85)
Technique: protein binding microarray
Form: double-stranded DNA, one strand shown
Sample: in vitro
Tested at: not given
Setting: 8-mer, flanks averaged, mean of 2 arrays, mostly near background
Reference: not given
Direction: higher = stronger binding
Target sequence (chain): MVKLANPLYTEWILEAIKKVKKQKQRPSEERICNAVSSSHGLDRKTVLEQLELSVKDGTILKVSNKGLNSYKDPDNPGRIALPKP
Strand | E-score
CCGTGTTC | 0.22
CCTCGGGC | 0.178
ATGCACTA | -0.102
AGTGCGTG | 0.0254
AGAAGCAG | -0.226
ATTCTTAG | -0.146
AGTCTGTG | -0.278
AGAGACTC | -0.186
ACCAACAG | -0.0407
AAAGGTTA | -0.0846
TACACGGA | 0.102

Study 2
Target: CCNE2, cyclin fold, Cln2 fusion (human)
Technique: yeast growth competition, sequencing
Sample: yeast
Setting: strong parent motif
Reference: not given
Direction: higher = stronger binding
Starting sequence: NPAT docking peptide (human); PCHRRVLCFDSTT; partner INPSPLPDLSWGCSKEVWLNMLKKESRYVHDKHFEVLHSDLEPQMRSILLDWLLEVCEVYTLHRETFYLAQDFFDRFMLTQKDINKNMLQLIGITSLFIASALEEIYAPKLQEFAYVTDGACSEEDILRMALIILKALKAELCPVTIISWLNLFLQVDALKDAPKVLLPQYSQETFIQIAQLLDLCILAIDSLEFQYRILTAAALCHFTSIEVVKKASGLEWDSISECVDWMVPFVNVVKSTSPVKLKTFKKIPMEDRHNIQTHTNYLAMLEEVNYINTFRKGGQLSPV
Variant | normalised enrichment score
S11A | 1.31
R4A | 1.47
R5K | 0.947
L7A | -0.0936
P1A | 2.24
R5A | 0.138
T13A | 2.08

Study 3
Target: RNA binding protein fox-1 homolog 2, RRM domain, GST-SBP tag (RBFOX2, Homo sapiens, UniProt O43251-10, residues 100-194)
Technique: RNA Bind-n-Seq
Form: RNA
Sample: in vitro
Tested at: 365 nM
Setting: natural RNA segment, single round, ends assumed
Reference: no-protein control
Direction: higher = stronger binding
Constant ends, left off below: GGGAGUUCUACAGUCCGACGAUC … UGGAAUUCUCGGGUGCCAA
Residues (chain): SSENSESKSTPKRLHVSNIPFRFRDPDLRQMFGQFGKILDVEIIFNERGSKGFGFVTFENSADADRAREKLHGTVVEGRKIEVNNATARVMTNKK
Strand | RBNS enrichment (R)
GGGCUGAAGGUCCCUUGGAGCCCAGUGUCUAGUCACACCUUUUUGCUCUGGGCCCAUGAGGCCUACUUCUUCCUUUUCUCAUGGAAUCCUGGGUAGAAUCUUAAUAAUAG | 0.264
AUUUUCAGAGGAAAGAACAUUUUAUGAGGCUUUCUCUAAAGUUUCCUUUGUAUAGGAGUAUGCUCACUUAAAUUUACAGAAAGAGGUGAGCUGUGUUAAACCUCAGAGUU | 0.331
UUUUUUUUUUUAAUUGGAAUUUACCAGUUUAUUGUUUAGCAGUAAUUACCCCAGGUAACACUGGGCAAAAAUCUGGGGUGCAUAAUAGGGAAUUCUGAAUUCUUAGAUUU | 1.05
AGAGAAAUUCCCCCGAAGACUGAGCUGGUUGCCUGCAUCCUCUAUCUUCUUUGACCCUUAUGACUGAAAGAUCAUCAGUUUGGAAGGUACUGGUCCAAUUUAUUUAGGAA | 1.04
GAAACUGUUUUUAUAGUUUUAAUCAGAGCUAUGCAUUUCAUACAGCUUUUUAAUUUACAAUGAAACAAAGAAACAAAUUCCUUUGACCAAAUUGCUUGUCUAUAGUUGUC | 0.403
AAACACUACAGAUAUUUUGAAUAUCAGUCAUGAUGGCAAUUUCUGUAUAAAAGAGCCUUAAAUGGAACAUUGUUUUGAGAUCAAACUCCCUACCCUCACAAAAGUGGCCA | 0.273
CUGCCUUGACCCGAGGAGGCAUCUCACUGGUUCCGUACUUGUGUGUGCCCUACGCCUCACUGCUGGGGCCCUGGACCCAGACCCAGGCAGGAGGGCCGACGGGUGCCUCG | 0.494
UGGGUCUUAGGCCUCCUUCCCUCCUCAGUGUCUUUCAAAUGACUUUCAUCAAAUGACUUUCAAAAUAAACCUUAUUUUGGCAAAGGCAUUUGUUGAGACUUAUUUUUUGG | 0.363

Single results of other studies
Molecule | target | test | system | conditions | scale | quantity | result
PhoQ, residues 284 288 289 292 302 303 AGHLVA | PhoP, residues 12 14 15 18 19 TTLRV (Escherichia coli, UniProt P23836) | Sort-seq, item: YFP reporter | E. coli | PhoQ-PhoP variant library, with: 10 µM Mg2+ | reference: high Mg2+ state, higher = stronger signaling | fold induction | 0.63

For quick reference, copied from above (study 1):
Strand | E-score
AGTCTGTG | -0.278
AGAGACTC | -0.186
